Measured values pooled from the literature.
Each line is one published result; not all experiments were run side by side. Values joined by “and” are separate records of one study, mostly repeats; a detail may differ. ± gives the spread as reported.
UniProt O43293, sequence (whole entry, looked up): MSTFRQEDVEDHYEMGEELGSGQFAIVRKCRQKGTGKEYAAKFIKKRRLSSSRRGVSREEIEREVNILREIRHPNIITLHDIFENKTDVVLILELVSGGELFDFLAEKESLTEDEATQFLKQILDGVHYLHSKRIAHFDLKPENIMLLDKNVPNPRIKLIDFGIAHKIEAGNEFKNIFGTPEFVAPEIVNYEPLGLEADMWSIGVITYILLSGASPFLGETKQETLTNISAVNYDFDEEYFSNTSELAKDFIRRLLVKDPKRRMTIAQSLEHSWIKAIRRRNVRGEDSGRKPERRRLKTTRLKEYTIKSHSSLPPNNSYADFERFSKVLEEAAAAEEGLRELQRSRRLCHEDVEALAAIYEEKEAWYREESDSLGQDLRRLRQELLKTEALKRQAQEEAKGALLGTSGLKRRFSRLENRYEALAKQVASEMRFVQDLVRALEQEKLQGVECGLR

| SMILES | target or system | test | system | setting | how to read | endpoint | value |
| --- | --- | --- | --- | --- | --- | --- | --- |
| CN1CCN(S(=O)(=O)c2cc([N+](=O)[O-])ccc2N(CCOS(C)(=O)=O)CCOS(C)(=O)=O)CC1 |  |  | NSG mice, sample BD PDX | intraperitoneal, 25 mg/kg weekly x3 | baseline: treated over vehicle | EFS ratio (T/C) | 1.5 |
| O=c1c(O)c(-c2ccc(O[C@@H]3O[C@H](CO)[C@@H](O)[C@H](O)[C@H]3O)c(O)c2)oc2cc(O)cc(O)c12 |  |  |  |  |  | DPPH radical scavenging | 4.04 trolox equivalents |
| CC[C@H](C)[C@@H]1NC(=O)[C@@H]2CCCN2C(=O)[C@H](CC(C)C)NC(=O)[C@H](CC(C)C)NC(=O)CNC(=O)[C@@H](NC(=O)[C@@H](NC(=O)[C@H](CC(=O)O)NC(=O)CNC(=O)[C@@H](NC(=O)[C@H](C)NC(=O)CNC(=O)[C@H](CCCCN)NC(=O)[C@H](CC(C)C)NC(=O)[C@H](CC(C)C)NC(=O)[C@H](CCCCN)NC(=O)CNC(=O)[C@@H](NC(=O)[C@@H](N)CC(C)C)C(C)C)C(C)C)C(C)C)CSSC[C@@H](C(=O)O)NC1=O |  | RNA-seq, refers to: Ihh mRNA | mouse traumatic brain injury, frontal cortex and hippocampus | dose not given | baseline: TBI plus compound vs TBI | log2 fold change | -2.31 |
| C[C@@H](NC(=O)c1ccc(C#Cc2cccc(F)c2)cn1)C(C)(C)O |  | field recording | rat hippocampal slice CA3 | 10 µM, with: MTEP 10 µM, 10 min pretreatment | baseline: baseline | spontaneous spike inter-event interval | 98.8 ± 11.8% |
| [131I-].[Na+] |  |  | human, papillary thyroid carcinoma | concentration not given, high-dose radioiodine therapy |  | patients with improved disease control | 85% |
| CNC(=O)CC1C(=O)N(C2CCN(C3CCC(C(C)C)CC3)CC2)c2ccccc21 (centres unmarked) |  |  | conscious Sprague-Dawley rat | intravenous bolus, 100 nmol/kg |  | mean arterial pressure change | decreased |
| CCSc1nc2ccccc2n1Cc1nnc(-c2cc(OC)c(OC)c(OC)c2)o1 |  | relaxation | isolated rabbit jejunum | spontaneous contractions |  | EC50 | 0.24 ± 0.01 µg/mL |
| C[C@]1(CO)Cc2ncn(-c3ccc(C#N)c(Cl)c3)c2C(=O)O1 |  | aldosterone synthesis, inhibitor, refers to: sodium | healthy Japanese adults, urine | 3 mg, 0-24 h after first dose, multiple rising dose |  | urinary excretion | 149 mmol |
| Cc1cn(-c2cc(NC(=O)c3ccc(C)c(Nc4nccc(-c5cccnc5)n4)c3)cc(C(F)(F)F)c2)cn1 |  |  | human patients | dose not given, 6 months vs baseline | baseline: placebo, direction not given | ADAS-Cog score change | -3 |
| CCCCC1(CCCC)CN(c2ccccc2)c2cc(SC)c(OCC(=O)N[C@@H](C(=O)NCC(=O)O)c3ccccc3)cc2S(=O)(=O)C1 |  | refers to: HDL cholesterol | human, serum | 5 mg once daily, day 8 |  | serum HDL-C | 46.7 mg/dL |
| COc1ncc(-c2nc3c(n2C(C)C)[C@H](c2ccc(Cl)cc2)N(c2cc(Cl)cn(C)c2=O)C3=O)c(OC)n1 |  | antileukemic activity, refers to: treatment failure, resistant disease | human, acute myeloid leukaemia | dose not given, all patients, IWG criteria |  | best overall response | 54.9% |
| CNC(=O)c1c(C)oc2cc(Oc3ccnc4cc(OCCN5CCOCC5)ccc34)ccc12 |  | refers to: soluble VEGFR-2 | patients, plasma | 6 mg twice daily, cycle 2 day 1 |  | decrease | 42% |
| COCC1=N[C@]23c4c(OC)cc(OC)cc4O[C@@]2(c2ccc(OC)cc2)[C@H](c2ccccc2)[C@@H](C(=O)N(C)OC)[C@]3(O)N1 |  | mRNA translation | Krebs-2 cell extracts |  |  | EC50 | 41 nM |
| C[C@H]1CN(c2n[nH]c3nc(N[C@H]4CC[C@H](NS(=O)(=O)CCC(F)(F)F)CC4)ncc23)CCO1 | DAPK3 (Homo sapiens, UniProt O43293) | inhibitor, Kinobeads competition profiling |  | 0.032 µM | baseline: vehicle | relative abundance | 1.02 |
| Clc1cc2c(cc1Cl)Oc1cc(Cl)c(Cl)cc1O2 |  | untargeted metabolomics | Sprague-Dawley rat, female, serum | dose not given | baseline: vehicle | number of changed metabolites | 183 |
| CCCCC1CNC2CCc3ccc(OC)cc3C12.Cl (racemic) |  | RNA sequencing | SAMP8 mice, hippocampus | intracerebroventricular, 1.0 µg/µL, 24 h | baseline: vehicle | upregulated genes count | 239 |
| CCSc1nc2ccccc2n1Cc1nnc(-c2ccc(F)cc2)o1 |  | relaxation | isolated rabbit jejunum | spontaneous contractions |  | EC50 | 0.28 ± 0.01 µg/mL |
| Cc1nc(Nc2ccc(CC(=O)O)cc2)nc(Nc2ccc(F)c(C(F)(F)F)c2)c1C |  |  | C57BL/6J mouse, high-fat diet MASH model, liver | intraperitoneal, 0.3 mg/kg daily, 60% fat diet for 12 weeks, dosed final four weeks | baseline: untreated | PDE4B expression | no effect |
| CCSc1nc2ccccc2n1Cc1nnc(-c2ccccc2Cl)o1 |  | relaxation, calcium antagonist | isolated rabbit jejunum | with: 80 mM K+ contraction |  | EC50 | 0.44 ± 0.02 µg/mL |
| Cn1cc(Nc2nccc(-c3ccc4c(c3)CN(C3COC3)CC[C@H]4NC(=O)c3cn(C(C)(C)C)nn3)n2)cn1 |  | refers to: lymphotoxin β receptor signaling | splenic B cells, mice | 30 mg/kg, IgD-activated in vivo | baseline: vehicle, direction not given | pathway activation z-score | 2.84 |
| CCSc1nc2ccccc2n1Cc1nnc(-c2ccc([N+](=O)[O-])cc2)o1 |  | relaxation, calcium antagonist | isolated rabbit jejunum | with: 80 mM K+ contraction |  | EC50 | 0.39 ± 0.05 µg/mL |
| C[C@H]1O[C@@H](O[C@H]2CC[C@@]3(C)[C@@H](CC[C@]4(C)[C@@H]3C=C[C@]35OC[C@@]6(CCC(C)(C)C[C@H]63)[C@@H](O)C[C@]54C)[C@]2(C)CO)[C@H](O)[C@@H](O[C@@H]2O[C@H](CO)[C@@H](O)[C@H](O)[C@H]2O)[C@H]1O |  |  | mouse, ethanol-fed, hepatic SIRT1 knockdown, plasma | dose not given, 5 h, high dose |  | AST activity | 67.6 U/L and 48.1 U/L and 67.3 U/L and 71.1 U/L and 87.3 U/L and 75.6 U/L |
| C=CCNc1c(O)cc2c(O)c1C[C@@H](C)C[C@H](OC)[C@H](O)[C@@H](C)/C=C(\C)[C@H](OC(N)=O)[C@@H](OC)/C=C\C=C(/C)C(=O)N2 |  | RECIST v1.0 | human GIST | concentration not given, best response |  | patients with stable disease | 70% |
